Measured values collected from several papers.
Lines come from different studies, so protocols differ.
Cell line: HCT-15

Structure (SMILES)	assay	conditions	how to read	quantity	value
CC(Cc1ccc(Cl)cc1)=C(c1ccc(Cl)cc1)c1ccc(OCCN(C)C)cc1	cell growth or viability, SRB			GI50	1.19 µM
COc1cc(CNC(=O)C[C@H](C)CCC=C(C)C)ccc1OCc1cn(-c2cccc([N+](=O)[O-])c2)nn1	SRB	10 µM, 48 h		growth percent	80.9%
CC(=O)c1cccc(NC2C(N)C(NC(=O)N(C)C)(C(C)O)C(O)C2(O)COC(=O)c2c(C)cccc2O)c1 (centres unmarked)	cell growth or viability, SRB			GI50	0.16 µM
CC(=O)OC[C@H]1O[C@@H](Sc2sc(C(=O)c3ccc(C)cc3)c(N)c2-c2nc3ccccc3s2)[C@H](OC(C)=O)[C@@H](OC(C)=O)[C@@H]1OC(C)=O	SRB	10 µM, 48 h	baseline: untreated	growth	39.3%
COc1cc(CNC(=O)C[C@H](C)CCC=C(C)C)ccc1OCc1cn(-c2ccccc2F)nn1	SRB	10 µM, 48 h		growth percent	82.8%
Clc1cccc(Nc2nc(NCc3ccccc3)c3ccccc3n2)c1	cell growth or viability	72 h		GI50	2.5 µM
COc1cc(CNC(=O)C[C@H](C)CCC=C(C)C)ccc1OCc1cn(-c2ccc(C#N)cc2)nn1	SRB	10 µM, 48 h		growth percent	66.2%
COc1cccc2c(NCc3ccccc3)nc(Nc3cccc(Cl)c3)nc12	cell growth or viability	24 h		GI50	29 µM
COc1ccc2c(c1)/C(=N\Nc1nnc3n1N=C(c1ccccc1)CS3)C(=O)N2	cell growth or viability, SRB	10 µM		inhibition	10%
Fc1cccc(CNc2nc(NCc3ccccc3)c3ccccc3n2)c1	cell growth or viability	24 h		GI50	3.4 µM
COc1cc(CNC(=O)C[C@H](C)CCC=C(C)C)ccc1OCc1cn(-c2ccc(Cl)c(Cl)c2)nn1	SRB	10 µM, 48 h		growth percent	29.4%
Brc1cccc(CNc2nc(NCc3ccccc3)c3ccccc3n2)c1	cell growth or viability	24 h		GI50	3.4 µM
COc1cc(/C=C/C(=O)/C=C(O)/C=C/c2ccc(OCC(=O)N3CCOCCOCCOCCOCCOCC3)c(OC)c2)ccc1OCC(=O)N1CCOCCOCCOCCOCCOCC1	cell growth or viability, SRB	5 µM		inhibition	15.7%
CC/C=C\C/C=C\C/C=C\C/C=C\C/C=C\C/C=C\CCC(=O)Nc1ccn(C2OC(CO)C(O)C2(F)F)c(=O)n1 (centres unmarked)	cell growth or viability, SRB			GI50	1.86 µM
COc1cc(CNC(=O)C[C@H](C)CCC=C(C)C)ccc1OCc1cn(-c2cccc(Cl)c2)nn1	SRB	10 µM, 48 h		growth percent	81.4%
CCC(=C(c1ccc(Cl)cc1)c1ccc(OCCCN(C)C)cc1)c1ccc(OC)cc1	cell growth or viability, SRB			GI50	1.44 µM
COc1cccc(CNc2nc(NCc3ccccc3)c3ccccc3n2)c1	cell growth or viability	24 h		GI50	4.4 µM
CC(=O)OC[C@H]1O[C@@H](Sc2sc(C(=O)c3ccc(Br)cc3)c(N)c2-c2nc3ccccc3s2)[C@H](OC(C)=O)[C@@H](OC(C)=O)[C@H]1OC(C)=O	SRB	10 µM, 48 h	baseline: untreated	growth	91.3%
FC(F)(F)c1ccc(CNc2nc(NCc3ccccc3)c3ccccc3n2)cc1	cell growth or viability	72 h		GI50	2 µM
COc1cc(CNC(=O)C[C@H](C)CCC=C(C)C)ccc1OCc1cn(-c2ccc([N+](=O)[O-])cc2)nn1	SRB	10 µM, 48 h		growth percent	71.8%
